Published values from different studies.
Each line is one published result; not all experiments were run side by side. Values joined by “and” are separate records of one study, mostly repeats; a detail may differ. ± gives the spread as reported.
USP33 ZnF-UBD domain: Ubiquitin carboxyl-terminal hydrolase 33, ZnF-UBD domain (USP33, Homo sapiens, UniProt Q8TEY7)
Chain of UniProt Q8TEY7 (whole entry, looked up): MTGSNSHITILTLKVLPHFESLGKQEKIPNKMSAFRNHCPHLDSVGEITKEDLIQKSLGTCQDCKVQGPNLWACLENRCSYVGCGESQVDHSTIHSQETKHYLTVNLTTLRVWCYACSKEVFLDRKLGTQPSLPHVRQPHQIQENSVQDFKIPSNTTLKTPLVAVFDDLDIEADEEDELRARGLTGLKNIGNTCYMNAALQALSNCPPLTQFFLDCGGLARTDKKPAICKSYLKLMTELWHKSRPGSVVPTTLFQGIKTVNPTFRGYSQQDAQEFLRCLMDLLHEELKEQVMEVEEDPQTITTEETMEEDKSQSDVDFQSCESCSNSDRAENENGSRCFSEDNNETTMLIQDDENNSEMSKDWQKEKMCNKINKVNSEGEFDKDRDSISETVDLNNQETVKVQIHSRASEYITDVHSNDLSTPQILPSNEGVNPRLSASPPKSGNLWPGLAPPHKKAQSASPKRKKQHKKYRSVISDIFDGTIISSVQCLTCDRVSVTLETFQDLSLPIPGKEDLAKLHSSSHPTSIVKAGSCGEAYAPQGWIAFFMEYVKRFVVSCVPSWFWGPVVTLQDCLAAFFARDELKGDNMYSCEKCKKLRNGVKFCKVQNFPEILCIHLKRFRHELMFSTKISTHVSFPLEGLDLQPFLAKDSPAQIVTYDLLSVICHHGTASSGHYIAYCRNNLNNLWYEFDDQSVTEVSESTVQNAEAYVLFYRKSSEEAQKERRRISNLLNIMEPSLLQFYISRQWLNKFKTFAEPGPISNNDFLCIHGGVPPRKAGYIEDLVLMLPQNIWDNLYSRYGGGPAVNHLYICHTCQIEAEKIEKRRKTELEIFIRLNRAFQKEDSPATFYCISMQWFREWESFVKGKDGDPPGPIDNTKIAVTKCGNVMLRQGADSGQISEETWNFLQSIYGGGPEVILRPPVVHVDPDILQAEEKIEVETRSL
IDE: Insulin-degrading enzyme (IDE, Homo sapiens, UniProt P14735)
Cereblon/Ikaros: Cereblon/Ikaros (Homo sapiens, UniProt Q13422+Q96SW2)
Chain of UniProt Q13422 (whole entry, looked up): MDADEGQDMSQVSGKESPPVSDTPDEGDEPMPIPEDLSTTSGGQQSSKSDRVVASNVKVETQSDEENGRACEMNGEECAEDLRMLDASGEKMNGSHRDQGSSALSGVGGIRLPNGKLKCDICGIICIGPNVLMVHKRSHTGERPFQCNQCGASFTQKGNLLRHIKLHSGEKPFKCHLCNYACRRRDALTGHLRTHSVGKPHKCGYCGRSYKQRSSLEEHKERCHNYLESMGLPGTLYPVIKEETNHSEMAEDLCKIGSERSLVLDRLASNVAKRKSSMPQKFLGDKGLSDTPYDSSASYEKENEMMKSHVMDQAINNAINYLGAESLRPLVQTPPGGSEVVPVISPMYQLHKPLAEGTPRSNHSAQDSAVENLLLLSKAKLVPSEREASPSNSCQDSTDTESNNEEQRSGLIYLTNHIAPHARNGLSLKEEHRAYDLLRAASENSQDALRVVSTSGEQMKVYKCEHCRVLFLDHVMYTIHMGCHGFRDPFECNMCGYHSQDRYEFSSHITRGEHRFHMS
Chain of UniProt Q96SW2 (whole entry, looked up): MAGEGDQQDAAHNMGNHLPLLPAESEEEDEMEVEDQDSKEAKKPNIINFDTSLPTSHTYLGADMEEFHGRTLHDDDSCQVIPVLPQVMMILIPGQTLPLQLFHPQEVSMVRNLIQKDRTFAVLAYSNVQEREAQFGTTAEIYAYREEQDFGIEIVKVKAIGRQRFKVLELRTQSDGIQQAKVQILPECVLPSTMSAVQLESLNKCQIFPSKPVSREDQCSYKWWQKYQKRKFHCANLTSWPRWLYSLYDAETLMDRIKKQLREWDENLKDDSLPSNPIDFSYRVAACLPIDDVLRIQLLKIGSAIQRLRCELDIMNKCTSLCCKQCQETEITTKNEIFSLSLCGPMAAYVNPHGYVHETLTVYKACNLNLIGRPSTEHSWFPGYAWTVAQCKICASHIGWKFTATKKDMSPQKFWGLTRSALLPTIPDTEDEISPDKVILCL
Chain of UniProt Q13336 (whole entry, looked up): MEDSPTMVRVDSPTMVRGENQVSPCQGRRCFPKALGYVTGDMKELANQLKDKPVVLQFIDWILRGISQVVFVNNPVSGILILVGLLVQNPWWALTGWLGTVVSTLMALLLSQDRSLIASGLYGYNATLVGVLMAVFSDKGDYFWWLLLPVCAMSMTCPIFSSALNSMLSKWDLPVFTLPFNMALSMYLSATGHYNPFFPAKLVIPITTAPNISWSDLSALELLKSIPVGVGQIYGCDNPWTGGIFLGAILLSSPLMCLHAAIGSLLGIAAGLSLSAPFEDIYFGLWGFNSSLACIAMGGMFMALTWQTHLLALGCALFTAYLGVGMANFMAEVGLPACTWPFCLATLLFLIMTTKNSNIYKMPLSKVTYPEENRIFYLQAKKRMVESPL
Chain of UniProt P05181 (whole entry, looked up): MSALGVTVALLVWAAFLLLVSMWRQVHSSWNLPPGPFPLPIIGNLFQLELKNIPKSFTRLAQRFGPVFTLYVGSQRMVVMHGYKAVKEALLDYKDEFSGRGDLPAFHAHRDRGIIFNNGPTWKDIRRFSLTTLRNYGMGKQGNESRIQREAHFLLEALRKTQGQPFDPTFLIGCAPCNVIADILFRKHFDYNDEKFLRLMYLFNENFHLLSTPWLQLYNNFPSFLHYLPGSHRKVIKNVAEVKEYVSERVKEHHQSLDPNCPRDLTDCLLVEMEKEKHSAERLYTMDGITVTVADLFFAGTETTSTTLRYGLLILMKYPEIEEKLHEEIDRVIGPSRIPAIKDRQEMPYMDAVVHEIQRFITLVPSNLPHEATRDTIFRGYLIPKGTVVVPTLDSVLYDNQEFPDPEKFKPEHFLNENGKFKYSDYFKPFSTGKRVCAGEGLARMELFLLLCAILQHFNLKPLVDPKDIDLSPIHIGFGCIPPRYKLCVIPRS

Compound	target	assay	test system	setting	endpoint	value
O=C(O)CCn1sc2ccccc2c1=O	USP33 ZnF-UBD domain	–	–	–	Kd	> 1 mM
CCc1oc2ccccc2c1C(=O)c1ccc(O)cc1	Cytochrome P450 2E1 (CYP2E1, Homo sapiens, UniProt P05181)	p-nitrophenol hydroxylation, nonlinear fit	baculosomes	10 min	Ki	4.8 nM
NC(=S)Nc1ccc(Cl)c(Cl)c1	Urea transporter 1 (Homo sapiens, UniProt Q13336)	urea transport inhibition	–	together with: thiourea	Ki	10000 nM and ~30000 nM
COc1ccccc1-c1ccc([C@H]2[C@H](C#N)N[C@@H]2CO)cc1	IDE	enzyme activity, inhibitor, fluorogenic kinetic	–	together with: Mca-RPPGFSAFK(Dnp)-OH substrate	EC50	6300 nM
NS(=O)(=O)c1nnc(NC(=O)Cc2ccccc2)s1	Enterococcus faecium γ-carbonic anhydrase	CO2 hydration, inhibitor, stopped-flow kinetics	–	–	Ki	123 nM
CCC(C)(NCCc1ccc(C(F)(F)F)c(Cl)c1)c1cccc(NC2=CC(=O)N(C3CCC(=O)NC3=O)C2=O)c1 (stereo not drawn)	Cereblon/Ikaros	degrader, HiBiT luminescence, item: endogenous HiBiT-tagged protein	–	–	DC50	40 ± 7 nM
CC1(C(=O)Nc2nnc(S(N)(=O)=O)s2)CC1	Enterococcus faecium γ-carbonic anhydrase	CO2 hydration, inhibitor, stopped-flow kinetics	–	–	Ki	466 nM
O=C1CCC(N2C(=O)C=C(Nc3cccc(C4(NCCc5ccc(C(F)(F)F)c(Cl)c5)CCC4)c3)C2=O)C(=O)N1 (stereo not drawn)	Cereblon/Ikaros	degrader, HiBiT	Jurkat	5 h	DC50	20 ± 1 nM
O=C(O)CCn1ccccc1=O	USP33 ZnF-UBD domain	–	–	–	Kd	> 1 mM
Cc1cc(S(=O)(=O)N2CCCCN3[C@H](CO)[C@@H](c4ccc(-c5cccc(C)c5C)cc4)[C@@H]3C2)n(C)n1	IDE	enzyme activity, inhibitor, fluorescence kinetic	–	together with: Mca-RPPGFSAFK(Dnp)-OH substrate	EC50	24 nM
CCC(C)(NCCc1ccccc1)c1cccc(NC2=CC(=O)N(C3CCC(=O)NC3=O)C2=O)c1 (stereo not drawn)	Cereblon/Ikaros	degrader, HiBiT luminescence, item: endogenous HiBiT-tagged protein	–	–	DC50	120 ± 28 nM
Cc1cccc(-c2ccc([C@@H]3[C@@H](CO)N4CCCCN(C(=O)c5cccnc5)C[C@@H]34)cc2)c1	IDE	enzyme activity, inhibitor, fluorogenic kinetic	–	together with: Mca-RPPGFSAFK(Dnp)-OH substrate	EC50	> 100000 nM
NS(=O)(=O)c1nnc(NC(=O)C2CC23CCOCC3)s1 (stereo not drawn)	Enterococcus faecium γ-carbonic anhydrase	CO2 hydration, inhibitor, stopped-flow kinetics	–	–	Ki	215 nM
O=C1CCC(N2Cc3cc(Nc4noc5ccccc45)ccc3C2=O)C(=O)N1 (stereo not drawn)	Cereblon/Ikaros	degrader, live-cell HiBiT kinetic	Jurkat Ikaros-HiBiT LgBiT	–	DC50	> 10000 nM
Cc1ccccc1-c1ccc([C@@H]2[C@@H](CO)N3C(=O)CN(S(C)(=O)=O)C[C@@H]23)cc1	IDE	enzyme activity, inhibitor, fluorogenic kinetic	–	together with: Mca-RPPGFSAFK(Dnp)-OH substrate	EC50	1800 nM
O=C(O)CNC(=O)c1ccc(C(=O)N2CCC(c3ccc(Cl)cc3)CC2)cn1	USP33 ZnF-UBD domain	–	–	–	Kd	> 1 mM
COc1ccccc1-c1ccc([C@H]2[C@@H](CO)N3CCCCN(C(=O)NC4CCCC4)C[C@H]23)cc1	IDE	enzyme activity, inhibitor, fluorogenic kinetic	–	together with: Mca-RPPGFSAFK(Dnp)-OH substrate	EC50	2600 nM
NS(=O)(=O)c1nnc(NC(=O)CN2CCC(F)(F)CC2)s1	Enterococcus faecium γ-carbonic anhydrase	CO2 hydration, inhibitor, stopped-flow kinetics	–	–	Ki	49.1 nM

For quick reference, copied from above:
Compound	target	assay	test system	setting	endpoint	value
NS(=O)(=O)c1nnc(NC(=O)Cc2ccccc2)s1	Enterococcus faecium γ-carbonic anhydrase	CO2 hydration, inhibitor, stopped-flow kinetics	–	–	Ki	123 nM
Cc1cc(S(=O)(=O)N2CCCCN3[C@H](CO)[C@@H](c4ccc(-c5cccc(C)c5C)cc4)[C@@H]3C2)n(C)n1	IDE	enzyme activity, inhibitor, fluorescence kinetic	–	together with: Mca-RPPGFSAFK(Dnp)-OH substrate	EC50	24 nM
